{"data": "Assay results pooled from the literature", "note": "A part holds a random share of what one study measured.", "sequence of UniProt P42336 (whole entry, unmodified, looked up)": "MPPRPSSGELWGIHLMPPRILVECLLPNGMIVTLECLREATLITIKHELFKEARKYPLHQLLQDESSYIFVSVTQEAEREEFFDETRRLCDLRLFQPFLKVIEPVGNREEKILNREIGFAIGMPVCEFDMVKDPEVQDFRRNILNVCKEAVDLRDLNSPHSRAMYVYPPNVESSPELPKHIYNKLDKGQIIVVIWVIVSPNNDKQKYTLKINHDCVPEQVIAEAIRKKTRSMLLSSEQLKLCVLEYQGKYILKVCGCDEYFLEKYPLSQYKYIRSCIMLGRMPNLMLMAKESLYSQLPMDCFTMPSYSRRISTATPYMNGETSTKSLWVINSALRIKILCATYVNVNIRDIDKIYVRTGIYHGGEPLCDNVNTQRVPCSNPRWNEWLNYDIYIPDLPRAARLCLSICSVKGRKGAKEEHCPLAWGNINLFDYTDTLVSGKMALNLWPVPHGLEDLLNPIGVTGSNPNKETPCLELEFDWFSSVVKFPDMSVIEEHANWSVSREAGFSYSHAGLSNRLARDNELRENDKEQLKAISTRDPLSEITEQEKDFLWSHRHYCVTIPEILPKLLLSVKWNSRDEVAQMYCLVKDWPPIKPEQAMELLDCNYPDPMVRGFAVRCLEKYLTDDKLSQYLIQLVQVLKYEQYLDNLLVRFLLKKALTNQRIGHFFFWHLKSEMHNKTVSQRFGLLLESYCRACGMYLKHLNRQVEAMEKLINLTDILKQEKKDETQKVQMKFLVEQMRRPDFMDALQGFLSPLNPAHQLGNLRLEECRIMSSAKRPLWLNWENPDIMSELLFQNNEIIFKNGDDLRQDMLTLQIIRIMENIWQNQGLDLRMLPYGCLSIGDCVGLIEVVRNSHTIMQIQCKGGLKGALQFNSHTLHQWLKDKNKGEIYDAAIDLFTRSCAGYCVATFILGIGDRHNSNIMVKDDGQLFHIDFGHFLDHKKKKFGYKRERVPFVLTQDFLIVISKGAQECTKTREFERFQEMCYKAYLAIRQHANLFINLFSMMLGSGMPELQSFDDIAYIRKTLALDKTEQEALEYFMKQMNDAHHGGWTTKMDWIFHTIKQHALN", "sequence of UniProt P62344 (whole entry, looked up)": "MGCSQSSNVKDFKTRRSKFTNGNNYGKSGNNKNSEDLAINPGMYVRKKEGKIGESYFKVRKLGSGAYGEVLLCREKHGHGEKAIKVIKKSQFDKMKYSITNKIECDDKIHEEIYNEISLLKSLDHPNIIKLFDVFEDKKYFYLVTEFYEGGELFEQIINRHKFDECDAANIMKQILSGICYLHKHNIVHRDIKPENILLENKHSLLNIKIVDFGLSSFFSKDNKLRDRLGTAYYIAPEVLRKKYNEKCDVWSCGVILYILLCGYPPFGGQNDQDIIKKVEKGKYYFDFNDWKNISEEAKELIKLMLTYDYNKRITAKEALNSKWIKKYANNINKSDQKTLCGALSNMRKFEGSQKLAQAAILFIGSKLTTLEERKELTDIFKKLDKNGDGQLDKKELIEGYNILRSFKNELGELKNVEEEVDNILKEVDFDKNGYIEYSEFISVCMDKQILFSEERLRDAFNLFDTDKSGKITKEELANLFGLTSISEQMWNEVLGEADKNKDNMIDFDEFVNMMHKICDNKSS", "sequence of UniProt O76039 (whole entry, looked up)": "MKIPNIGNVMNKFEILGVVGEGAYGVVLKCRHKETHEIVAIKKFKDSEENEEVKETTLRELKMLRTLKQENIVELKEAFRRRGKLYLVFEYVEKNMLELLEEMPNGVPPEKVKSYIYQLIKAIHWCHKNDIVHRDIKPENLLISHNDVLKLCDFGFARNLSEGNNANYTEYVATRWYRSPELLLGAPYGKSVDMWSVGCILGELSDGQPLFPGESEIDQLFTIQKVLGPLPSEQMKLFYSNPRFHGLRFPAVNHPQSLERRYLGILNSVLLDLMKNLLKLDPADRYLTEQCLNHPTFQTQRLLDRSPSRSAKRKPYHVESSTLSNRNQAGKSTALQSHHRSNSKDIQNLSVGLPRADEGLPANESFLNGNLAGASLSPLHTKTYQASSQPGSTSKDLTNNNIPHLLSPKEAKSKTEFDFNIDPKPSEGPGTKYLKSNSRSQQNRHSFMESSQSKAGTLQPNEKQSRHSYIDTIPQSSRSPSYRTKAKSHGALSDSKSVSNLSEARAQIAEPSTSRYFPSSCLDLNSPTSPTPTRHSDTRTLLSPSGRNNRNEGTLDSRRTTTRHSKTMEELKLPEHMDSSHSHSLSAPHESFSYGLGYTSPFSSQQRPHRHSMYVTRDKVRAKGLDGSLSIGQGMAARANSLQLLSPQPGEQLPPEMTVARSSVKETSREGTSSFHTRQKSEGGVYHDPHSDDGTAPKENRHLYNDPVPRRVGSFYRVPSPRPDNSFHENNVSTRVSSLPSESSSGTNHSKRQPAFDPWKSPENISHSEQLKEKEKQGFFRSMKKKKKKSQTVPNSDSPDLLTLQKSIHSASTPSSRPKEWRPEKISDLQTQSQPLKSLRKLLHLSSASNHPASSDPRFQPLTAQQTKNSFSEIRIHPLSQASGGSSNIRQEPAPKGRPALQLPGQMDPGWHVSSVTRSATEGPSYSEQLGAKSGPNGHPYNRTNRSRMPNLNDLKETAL", "sequence of UniProt Q08345 (whole entry, looked up)": "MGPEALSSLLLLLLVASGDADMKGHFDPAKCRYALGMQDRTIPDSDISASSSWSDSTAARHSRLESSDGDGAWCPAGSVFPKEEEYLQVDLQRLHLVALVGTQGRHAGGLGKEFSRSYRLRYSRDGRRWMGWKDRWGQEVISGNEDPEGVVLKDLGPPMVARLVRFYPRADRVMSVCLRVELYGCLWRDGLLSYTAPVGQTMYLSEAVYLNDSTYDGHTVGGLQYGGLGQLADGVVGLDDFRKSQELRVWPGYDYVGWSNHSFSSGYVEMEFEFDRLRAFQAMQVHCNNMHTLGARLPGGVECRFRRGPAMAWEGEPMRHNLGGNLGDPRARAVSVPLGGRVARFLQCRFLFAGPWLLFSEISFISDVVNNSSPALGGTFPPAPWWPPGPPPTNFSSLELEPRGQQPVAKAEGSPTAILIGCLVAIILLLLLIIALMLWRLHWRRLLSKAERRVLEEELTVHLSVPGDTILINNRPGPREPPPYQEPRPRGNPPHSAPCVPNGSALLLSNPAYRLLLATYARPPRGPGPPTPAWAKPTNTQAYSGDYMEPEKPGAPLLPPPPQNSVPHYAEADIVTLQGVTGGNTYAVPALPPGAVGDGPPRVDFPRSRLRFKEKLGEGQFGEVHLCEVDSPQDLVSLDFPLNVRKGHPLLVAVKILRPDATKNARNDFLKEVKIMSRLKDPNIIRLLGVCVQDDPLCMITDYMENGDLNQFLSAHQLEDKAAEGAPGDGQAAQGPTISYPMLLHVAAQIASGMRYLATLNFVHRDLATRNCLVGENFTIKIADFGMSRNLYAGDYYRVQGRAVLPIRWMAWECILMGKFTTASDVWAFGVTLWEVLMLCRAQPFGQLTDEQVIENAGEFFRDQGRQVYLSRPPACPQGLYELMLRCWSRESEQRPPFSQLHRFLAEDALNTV", "sequence of UniProt P54760 (whole entry, looked up)": "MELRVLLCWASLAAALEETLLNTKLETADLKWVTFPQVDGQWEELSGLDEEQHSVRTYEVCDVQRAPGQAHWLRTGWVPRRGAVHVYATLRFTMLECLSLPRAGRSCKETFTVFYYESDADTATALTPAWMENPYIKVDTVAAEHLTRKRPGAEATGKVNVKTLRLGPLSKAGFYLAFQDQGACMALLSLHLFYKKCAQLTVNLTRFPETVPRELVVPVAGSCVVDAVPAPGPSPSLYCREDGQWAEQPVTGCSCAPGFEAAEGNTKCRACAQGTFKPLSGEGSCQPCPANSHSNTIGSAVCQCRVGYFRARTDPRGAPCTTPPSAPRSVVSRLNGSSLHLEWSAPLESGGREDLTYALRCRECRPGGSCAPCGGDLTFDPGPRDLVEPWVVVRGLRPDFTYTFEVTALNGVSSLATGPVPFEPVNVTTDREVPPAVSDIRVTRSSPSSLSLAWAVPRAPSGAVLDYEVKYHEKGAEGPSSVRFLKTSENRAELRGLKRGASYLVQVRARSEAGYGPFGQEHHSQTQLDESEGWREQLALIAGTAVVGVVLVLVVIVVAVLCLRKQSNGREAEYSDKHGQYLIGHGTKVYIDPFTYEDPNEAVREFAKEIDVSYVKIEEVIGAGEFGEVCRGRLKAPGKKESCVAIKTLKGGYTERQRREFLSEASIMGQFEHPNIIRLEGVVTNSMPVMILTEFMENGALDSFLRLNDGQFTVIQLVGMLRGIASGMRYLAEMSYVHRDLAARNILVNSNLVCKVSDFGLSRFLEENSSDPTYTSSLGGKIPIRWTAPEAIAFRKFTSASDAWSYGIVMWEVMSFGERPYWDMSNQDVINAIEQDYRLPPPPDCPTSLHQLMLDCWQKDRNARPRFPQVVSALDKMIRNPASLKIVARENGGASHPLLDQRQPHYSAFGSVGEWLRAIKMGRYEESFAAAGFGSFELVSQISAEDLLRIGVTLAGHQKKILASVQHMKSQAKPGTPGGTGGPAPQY"}
{"data": "Block 1", "target": "Calcium/calmodulin-dependent protein kinase type II subunit alpha (CAMK2A, Homo sapiens, UniProt Q9UQM7)", "effect on": "enzyme activity", "mode": "inhibitor", "concentration": "10 µM", "sequence of UniProt Q9UQM7 (whole entry, looked up)": "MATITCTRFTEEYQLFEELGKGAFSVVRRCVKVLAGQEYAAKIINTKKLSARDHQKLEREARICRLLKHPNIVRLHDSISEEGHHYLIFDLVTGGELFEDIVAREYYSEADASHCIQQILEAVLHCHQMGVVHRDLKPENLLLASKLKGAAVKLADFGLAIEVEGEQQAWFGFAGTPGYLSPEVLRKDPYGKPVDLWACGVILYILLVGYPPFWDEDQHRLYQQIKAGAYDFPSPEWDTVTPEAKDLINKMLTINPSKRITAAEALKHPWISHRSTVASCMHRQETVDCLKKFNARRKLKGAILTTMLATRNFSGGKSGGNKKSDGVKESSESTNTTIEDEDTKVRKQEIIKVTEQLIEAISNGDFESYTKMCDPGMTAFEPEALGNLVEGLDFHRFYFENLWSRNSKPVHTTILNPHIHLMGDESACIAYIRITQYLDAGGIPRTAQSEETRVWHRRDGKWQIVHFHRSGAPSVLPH"}
{"SMILES": "NC(=O)c1ccc[n+]([C@@H]2O[C@H](COP(=O)([O-])O)[C@@H](O)[C@H]2O)c1", "inhibition": "18%"}
{"SMILES": "Nc1nc2c([nH]c(=O)n2[C@H]2C[C@H](O)[C@@H](CO)O2)c(=O)[nH]1", "inhibition": "-26%"}
{"SMILES": "CC(C[N+](C)(C)C)OC(N)=O (stereo not shown)", "inhibition": "-5%"}
{"SMILES": "O=C(OCC1=C[C@@H](O)[C@@H]2C=CO[C@@H](O[C@@H]3O[C@H](CO)[C@@H](O)[C@H](O)[C@H]3O)[C@H]12)c1ccc(O)cc1", "inhibition": "11%"}
{"SMILES": "Nc1nc2ncc(CNc3ccc(C(=O)N[C@@H](CCC(=O)O)C(=O)O)cc3)nc2c(=O)[nH]1", "inhibition": "3%"}
{"SMILES": "CC(C)=CCc1c(O)ccc(-c2coc3cc(O)cc(O)c3c2=O)c1O", "inhibition": "3%"}
{"data": "Block 2", "Structure (SMILES)": "O=C(O)[C@H]1[C@H](Cn2nnc3ccccc3c2=O)CC[C@@H]1C(=O)c1ccc(OCCC2CCOCC2)cc1", "technique": "competition with immobilised ligand", "concentration": "1 µM"}
{"target": "PNCK (Homo sapiens, UniProt Q6P2M8)", "assay": "cell-free assay", "remaining binding [%]": 46}
{"target": "ULK1 (Homo sapiens, UniProt O75385)", "assay": "cell-free assay", "remaining binding [%]": 95}
{"target": "GAK (Homo sapiens, UniProt O14976)", "assay": "cell-free assay", "remaining binding [%]": 100}
{"target": "TNK1 (Homo sapiens, UniProt Q13470)", "assay": "cell-free assay", "remaining binding [%]": 100}
{"target": "Tyrosine-protein kinase JAK2, JH1 (JAK2, Homo sapiens, UniProt O60674)", "assay": "cell-free assay", "remaining binding [%]": 75}
{"target": "AXL (Homo sapiens, UniProt P30530)", "assay": "cell-free assay", "remaining binding [%]": 100}
{"target": "MAP4K4 (Homo sapiens, UniProt O95819)", "assay": "cell-free assay", "remaining binding [%]": 91}
{"target": "MAPK6 (Homo sapiens, UniProt Q16659)", "assay": "cell-free assay", "remaining binding [%]": 90}
{"target": "CDKL5 (Homo sapiens, UniProt O76039)", "assay": "binding", "remaining binding [%]": 85}
{"target": "NTRK1 (Homo sapiens, UniProt P04629)", "assay": "cell-free assay", "remaining binding [%]": 88}
{"target": "DDR1 (Homo sapiens, UniProt Q08345)", "assay": "cell-free assay", "remaining binding [%]": 100}
{"target": "DCLK1 (Homo sapiens, UniProt O15075)", "assay": "cell-free assay", "remaining binding [%]": 73}
{"target": "TNNI3K (Homo sapiens, UniProt Q59H18)", "assay": "cell-free assay", "remaining binding [%]": 100}
{"target": "EPHB4 (Homo sapiens, UniProt P54760)", "assay": "cell-free assay", "remaining binding [%]": 96}
{"target": "TGFBR2 (Homo sapiens, UniProt P37173)", "assay": "cell-free assay", "remaining binding [%]": 100}
{"target": "CAMK1 (Homo sapiens, UniProt Q14012)", "assay": "cell-free assay", "remaining binding [%]": 100}
{"target": "PIK3CA (Homo sapiens, UniProt P42336, C420R)", "assay": "cell-free assay", "remaining binding [%]": 100}
{"data": "Block 3", "cell line": "Huh-7", "concentration": "10 µM", "time": "24 h"}
{"SMILES": "O=C(Oc1cccc2cccnc12)c1ccccc1", "viability [%]": 64.1}
{"SMILES": "CC(=O)OCC(=O)[C@@]1(O)CC[C@H]2[C@@H]3CCC4=CC(=O)CC[C@]4(C)[C@@]3(F)[C@@H](O)C[C@@]21C", "viability [%]": 102}
{"SMILES": "CCOC(=O)C1=C(COCCN)NC(C)=C(C(=O)OC)C1c1ccccc1Cl (stereo not shown)", "viability [%]": 96.8}
{"SMILES": "NC(=O)NO", "viability [%]": 98.9}
{"SMILES": "CO[C@@]1(NC(=O)C(C(=O)O)c2ccc(O)cc2)C(=O)N2C(C(=O)O)=C(CSc3nnnn3C)CO[C@@H]21 (stereo partly shown)", "viability [%]": 97.7}
{"data": "Block 4", "Structure (SMILES)": "CO[C@@H]1[C@H](N(C)C(=O)c2ccccc2)C[C@H]2O[C@]1(C)n1c3ccccc3c3c4c(c5c6ccccc6n2c5c31)C(=O)NC4", "effect on": "enzyme activity", "mode": "inhibitor", "concentration": "1 µM"}
{"target": "CAMK2B (Homo sapiens, UniProt Q13554)", "inhibition": "81%"}
{"target": "SLK (Homo sapiens, UniProt Q9H2G2)", "inhibition": "33%"}
{"target": "PIK3CA (Homo sapiens, UniProt P42336, C420R)", "inhibition": "22%"}
{"target": "MET (Homo sapiens, UniProt P08581, M1250T)", "inhibition": "31%"}
{"target": "CDPK1 (Plasmodium falciparum, UniProt P62344)", "inhibition": "18%"}
{"target": "GSK3B (Homo sapiens, UniProt P49841)", "inhibition": "20%"}
{"note": "Some of these lines once more (block 2):"}
{"target": "DCLK1 (Homo sapiens, UniProt O15075)", "assay": "cell-free assay", "remaining binding [%]": 73}
{"target": "EPHB4 (Homo sapiens, UniProt P54760)", "assay": "cell-free assay", "remaining binding [%]": 96}
